{"data": "Results gathered from unrelated publications", "note": "A part holds a random share of what one study measured.", "UniProt P42336, sequence (whole entry, unmodified, looked up)": "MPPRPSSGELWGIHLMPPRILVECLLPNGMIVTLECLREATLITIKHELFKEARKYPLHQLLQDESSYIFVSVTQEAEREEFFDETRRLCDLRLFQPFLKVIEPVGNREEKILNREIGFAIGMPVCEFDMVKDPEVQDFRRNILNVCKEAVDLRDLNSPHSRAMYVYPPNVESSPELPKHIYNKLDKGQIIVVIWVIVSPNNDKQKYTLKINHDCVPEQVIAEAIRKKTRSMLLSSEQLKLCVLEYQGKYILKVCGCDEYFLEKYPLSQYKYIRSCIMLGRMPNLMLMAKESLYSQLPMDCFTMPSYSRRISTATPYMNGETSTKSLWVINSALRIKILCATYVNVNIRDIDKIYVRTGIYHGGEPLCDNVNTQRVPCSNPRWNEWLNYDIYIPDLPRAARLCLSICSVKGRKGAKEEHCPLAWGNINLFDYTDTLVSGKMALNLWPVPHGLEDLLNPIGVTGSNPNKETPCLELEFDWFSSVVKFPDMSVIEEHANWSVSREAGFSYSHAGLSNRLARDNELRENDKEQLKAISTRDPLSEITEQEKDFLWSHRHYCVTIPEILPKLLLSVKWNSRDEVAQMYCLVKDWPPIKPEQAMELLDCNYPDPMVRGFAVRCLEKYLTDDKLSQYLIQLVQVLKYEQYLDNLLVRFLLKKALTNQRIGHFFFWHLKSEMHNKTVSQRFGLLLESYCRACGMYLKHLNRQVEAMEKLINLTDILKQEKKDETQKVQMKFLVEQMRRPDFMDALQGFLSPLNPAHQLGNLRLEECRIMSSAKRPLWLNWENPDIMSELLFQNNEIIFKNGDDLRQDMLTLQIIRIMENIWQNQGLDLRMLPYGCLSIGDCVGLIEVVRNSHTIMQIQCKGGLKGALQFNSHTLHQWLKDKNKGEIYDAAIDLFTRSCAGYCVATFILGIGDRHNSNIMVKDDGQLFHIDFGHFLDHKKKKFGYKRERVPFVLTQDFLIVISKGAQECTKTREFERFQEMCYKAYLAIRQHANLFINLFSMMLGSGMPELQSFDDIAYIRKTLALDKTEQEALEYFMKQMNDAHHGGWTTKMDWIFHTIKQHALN", "UniProt Q13470, sequence (whole entry, looked up)": "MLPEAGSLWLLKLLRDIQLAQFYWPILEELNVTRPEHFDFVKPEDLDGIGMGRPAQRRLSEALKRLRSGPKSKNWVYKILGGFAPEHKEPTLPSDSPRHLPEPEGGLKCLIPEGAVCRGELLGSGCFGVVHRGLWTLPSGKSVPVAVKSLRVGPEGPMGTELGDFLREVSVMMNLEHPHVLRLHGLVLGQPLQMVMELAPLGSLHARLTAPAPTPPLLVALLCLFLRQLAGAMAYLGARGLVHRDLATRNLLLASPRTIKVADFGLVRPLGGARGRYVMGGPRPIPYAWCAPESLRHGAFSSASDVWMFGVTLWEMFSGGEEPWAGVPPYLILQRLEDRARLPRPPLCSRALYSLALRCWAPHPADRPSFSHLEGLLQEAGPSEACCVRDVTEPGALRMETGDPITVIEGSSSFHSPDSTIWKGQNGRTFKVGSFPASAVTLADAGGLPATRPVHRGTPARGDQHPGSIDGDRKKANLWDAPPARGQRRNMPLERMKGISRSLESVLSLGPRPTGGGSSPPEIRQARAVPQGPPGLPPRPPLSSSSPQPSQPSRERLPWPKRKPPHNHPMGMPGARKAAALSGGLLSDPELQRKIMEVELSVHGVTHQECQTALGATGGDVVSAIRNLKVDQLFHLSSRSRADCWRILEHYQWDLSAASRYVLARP", "UniProt P0C264, sequence (whole entry, looked up)": "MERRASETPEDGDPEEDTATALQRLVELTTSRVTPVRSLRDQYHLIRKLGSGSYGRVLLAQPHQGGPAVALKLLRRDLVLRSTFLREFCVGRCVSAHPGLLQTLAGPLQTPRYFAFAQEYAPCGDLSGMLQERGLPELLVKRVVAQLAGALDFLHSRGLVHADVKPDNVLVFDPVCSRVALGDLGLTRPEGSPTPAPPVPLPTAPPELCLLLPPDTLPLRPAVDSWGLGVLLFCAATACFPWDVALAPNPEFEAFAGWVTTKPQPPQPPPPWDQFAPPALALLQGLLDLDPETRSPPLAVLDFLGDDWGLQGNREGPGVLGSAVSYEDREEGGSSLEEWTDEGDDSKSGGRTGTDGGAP", "UniProt P68400, sequence (whole entry, looked up)": "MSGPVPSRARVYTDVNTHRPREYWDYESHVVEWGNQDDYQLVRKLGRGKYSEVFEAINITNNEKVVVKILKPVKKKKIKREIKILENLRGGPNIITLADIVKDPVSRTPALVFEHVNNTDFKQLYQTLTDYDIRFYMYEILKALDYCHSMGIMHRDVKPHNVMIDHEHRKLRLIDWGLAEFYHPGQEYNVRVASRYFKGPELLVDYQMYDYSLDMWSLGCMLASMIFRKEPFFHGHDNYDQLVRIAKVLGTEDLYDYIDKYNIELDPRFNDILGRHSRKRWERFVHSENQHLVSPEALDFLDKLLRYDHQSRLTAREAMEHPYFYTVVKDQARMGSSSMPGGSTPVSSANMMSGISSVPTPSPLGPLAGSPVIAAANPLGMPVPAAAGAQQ", "UniProt Q07912, sequence (whole entry, looked up)": "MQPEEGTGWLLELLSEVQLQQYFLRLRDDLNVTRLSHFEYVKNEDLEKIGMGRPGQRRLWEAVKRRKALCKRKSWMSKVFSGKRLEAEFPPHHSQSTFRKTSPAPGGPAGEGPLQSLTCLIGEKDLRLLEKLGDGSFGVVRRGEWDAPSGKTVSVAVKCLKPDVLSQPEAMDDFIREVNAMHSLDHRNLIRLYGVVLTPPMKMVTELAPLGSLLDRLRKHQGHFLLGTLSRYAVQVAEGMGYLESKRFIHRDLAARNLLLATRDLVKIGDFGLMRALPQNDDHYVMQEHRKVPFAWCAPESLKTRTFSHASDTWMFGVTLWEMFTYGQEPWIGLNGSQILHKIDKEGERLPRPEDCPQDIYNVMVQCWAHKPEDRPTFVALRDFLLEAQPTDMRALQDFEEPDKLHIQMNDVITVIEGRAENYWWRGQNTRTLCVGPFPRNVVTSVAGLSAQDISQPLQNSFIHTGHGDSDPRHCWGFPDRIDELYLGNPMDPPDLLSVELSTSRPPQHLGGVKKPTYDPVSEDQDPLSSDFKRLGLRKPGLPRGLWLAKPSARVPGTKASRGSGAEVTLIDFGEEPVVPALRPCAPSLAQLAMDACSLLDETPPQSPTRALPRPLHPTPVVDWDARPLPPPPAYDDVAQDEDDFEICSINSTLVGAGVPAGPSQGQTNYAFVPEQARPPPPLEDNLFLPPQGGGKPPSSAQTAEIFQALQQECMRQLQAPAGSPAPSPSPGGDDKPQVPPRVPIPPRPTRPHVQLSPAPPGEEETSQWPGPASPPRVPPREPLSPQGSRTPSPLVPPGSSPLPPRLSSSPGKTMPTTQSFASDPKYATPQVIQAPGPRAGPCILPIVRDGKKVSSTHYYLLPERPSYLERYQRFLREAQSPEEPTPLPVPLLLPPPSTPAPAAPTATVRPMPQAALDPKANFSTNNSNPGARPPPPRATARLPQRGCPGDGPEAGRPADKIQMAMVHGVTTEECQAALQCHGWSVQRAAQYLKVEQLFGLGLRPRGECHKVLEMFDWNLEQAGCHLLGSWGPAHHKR"}
{"data": "Block 1", "Compound": "CCC1(c2cccc(-c3cn(C)nc3C)c2)C2=C(Nc3n[nH]cc31)C(F)C(C)(C)CC2=O (single isomer, unassigned)", "tested at": "1 µM"}
{"target": "SBK3 (Homo sapiens, UniProt P0C264)", "observed": "kinase binding", "method": "KINOMEscan", "relative to": "DMSO control", "remaining binding [%]": 100}
{"target": "STK17B (Homo sapiens, UniProt O94768)", "observed": "binding", "method": "competition with immobilised ligand", "remaining binding [%]": 100}
{"target": "CDK15 (Homo sapiens, UniProt Q96Q40)", "observed": "kinase binding", "method": "KINOMEscan", "relative to": "DMSO control", "remaining binding [%]": 100}
{"target": "EPHB4 (Homo sapiens, UniProt P54760)", "observed": "binding", "method": "competition with immobilised ligand", "remaining binding [%]": 100}
{"target": "TLK2 (Homo sapiens, UniProt Q86UE8)", "observed": "binding", "method": "competition with immobilised ligand", "remaining binding [%]": 100}
{"target": "TNK1 (Homo sapiens, UniProt Q13470)", "observed": "kinase binding", "method": "KINOMEscan", "relative to": "DMSO control", "remaining binding [%]": 100}
{"target": "GRK3 (Homo sapiens, UniProt P35626)", "observed": "binding", "method": "competition with immobilised ligand", "remaining binding [%]": 51}
{"target": "GRK7 (Homo sapiens, UniProt Q8WTQ7)", "observed": "kinase binding", "method": "KINOMEscan", "relative to": "DMSO control", "remaining binding [%]": 93}
{"target": "PIK3CA (Homo sapiens, UniProt P42336, C420R)", "observed": "binding", "method": "competition with immobilised ligand", "remaining binding [%]": 85}
{"target": "MTOR (Homo sapiens, UniProt P42345)", "observed": "binding", "method": "competition with immobilised ligand", "remaining binding [%]": 57}
{"target": "PIK3CA (Homo sapiens, UniProt P42336, Q546K)", "observed": "kinase binding", "method": "KINOMEscan", "relative to": "DMSO control", "remaining binding [%]": 48}
{"target": "Myosin-IIIb (MYO3B, Homo sapiens, UniProt Q8WXR4)", "observed": "kinase binding", "method": "KINOMEscan", "relative to": "DMSO control", "remaining binding [%]": 96}
{"target": "PRKG1 (Homo sapiens, UniProt Q13976)", "observed": "kinase binding", "method": "KINOMEscan", "relative to": "DMSO control", "remaining binding [%]": 100}
{"target": "CSNK1A1L (Homo sapiens, UniProt Q8N752)", "observed": "kinase binding", "method": "KINOMEscan", "relative to": "DMSO control", "remaining binding [%]": 100}
{"target": "Ribosomal protein S6 kinase alpha-3, N-terminal kinase domain (RPS6KA3, Homo sapiens, UniProt P51812)", "observed": "kinase binding", "method": "KINOMEscan", "relative to": "DMSO control", "remaining binding [%]": 100}
{"data": "Block 2", "Structure (SMILES)": "C[C@@H]1CN(c2ccc(-c3cc(C(=O)NCCOCCOCCOCCOCCNC(=O)/C=C/c4[nH]cc(C(=O)N[C@@H](CC(N)=O)c5ccc(F)c(Cl)c5)c4-c4ccc(Cl)cc4F)ccc3F)cc2NC(=O)c2c[nH]c(=O)cc2C(F)(F)F)C[C@H](C)N1C", "observed": "thermal unfolding", "method": "differential scanning fluorimetry", "tested at": "5.5 µM", "reading": "higher = more unfolded", "DCAF1": "DDB1- and CUL4-associated factor 1 (DCAF1, Homo sapiens, UniProt Q9Y4B6)", "WDR5": "WD repeat-containing protein 5 (WDR5, Homo sapiens, UniProt P61964)", "UniProt Q9Y4B6, sequence (whole entry, looked up)": "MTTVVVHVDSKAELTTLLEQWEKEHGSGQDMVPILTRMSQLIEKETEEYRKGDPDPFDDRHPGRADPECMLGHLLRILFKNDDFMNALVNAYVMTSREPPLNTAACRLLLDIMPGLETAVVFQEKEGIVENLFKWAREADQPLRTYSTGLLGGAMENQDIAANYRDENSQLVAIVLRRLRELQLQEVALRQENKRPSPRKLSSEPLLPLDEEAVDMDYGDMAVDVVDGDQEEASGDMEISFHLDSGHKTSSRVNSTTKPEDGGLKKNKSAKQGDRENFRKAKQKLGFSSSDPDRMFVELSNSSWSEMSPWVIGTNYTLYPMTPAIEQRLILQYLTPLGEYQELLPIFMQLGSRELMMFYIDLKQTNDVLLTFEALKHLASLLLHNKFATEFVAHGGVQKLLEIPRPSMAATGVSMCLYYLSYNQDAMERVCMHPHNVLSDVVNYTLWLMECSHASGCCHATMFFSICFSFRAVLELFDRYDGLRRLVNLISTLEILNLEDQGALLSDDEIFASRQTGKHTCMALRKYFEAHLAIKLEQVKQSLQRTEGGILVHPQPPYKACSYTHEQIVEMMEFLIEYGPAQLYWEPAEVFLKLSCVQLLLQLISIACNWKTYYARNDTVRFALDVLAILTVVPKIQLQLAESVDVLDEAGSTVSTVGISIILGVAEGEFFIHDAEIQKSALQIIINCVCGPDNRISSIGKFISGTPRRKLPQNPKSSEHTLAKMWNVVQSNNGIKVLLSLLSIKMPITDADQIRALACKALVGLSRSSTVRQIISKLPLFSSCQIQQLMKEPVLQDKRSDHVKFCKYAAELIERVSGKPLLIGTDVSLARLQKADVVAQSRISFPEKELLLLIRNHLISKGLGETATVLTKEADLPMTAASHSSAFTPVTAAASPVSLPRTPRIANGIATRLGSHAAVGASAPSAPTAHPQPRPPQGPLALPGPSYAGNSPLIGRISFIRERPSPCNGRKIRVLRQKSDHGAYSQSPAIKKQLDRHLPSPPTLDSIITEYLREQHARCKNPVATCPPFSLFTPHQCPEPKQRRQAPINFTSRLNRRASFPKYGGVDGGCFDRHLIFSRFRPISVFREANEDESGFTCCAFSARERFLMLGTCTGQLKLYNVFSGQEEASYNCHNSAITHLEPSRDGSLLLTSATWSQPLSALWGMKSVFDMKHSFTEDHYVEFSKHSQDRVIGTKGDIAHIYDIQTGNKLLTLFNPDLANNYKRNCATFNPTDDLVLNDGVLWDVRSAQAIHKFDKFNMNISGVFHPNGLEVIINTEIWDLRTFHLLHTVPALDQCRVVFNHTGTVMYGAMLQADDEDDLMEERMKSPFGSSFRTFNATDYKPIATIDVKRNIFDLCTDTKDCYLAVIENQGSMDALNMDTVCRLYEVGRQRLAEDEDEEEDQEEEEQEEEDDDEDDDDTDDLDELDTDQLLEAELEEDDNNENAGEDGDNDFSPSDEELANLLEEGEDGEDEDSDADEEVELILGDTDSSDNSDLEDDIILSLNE"}
{"target": "DCAF1", "temperature": "41.2 °C", "SYPRO Orange fluorescence [a.u.]": 11900}
{"target": "WDR5", "temperature": "42.4 °C", "SYPRO Orange fluorescence [a.u.]": 15000}
{"target": "WDR5", "temperature": "91.01 °C", "SYPRO Orange fluorescence [a.u.]": 49800}
{"target": "WDR5", "temperature": "86.21 °C", "SYPRO Orange fluorescence [a.u.]": 53500}
{"target": "DCAF1", "temperature": "57.21 °C", "SYPRO Orange fluorescence [a.u.]": 28000}
{"target": "WDR5", "temperature": "62.21 °C", "SYPRO Orange fluorescence [a.u.]": 14800}
{"target": "WDR5", "temperature": "90.41 °C", "SYPRO Orange fluorescence [a.u.]": 50700}
{"target": "WDR5", "temperature": "83.81 °C", "SYPRO Orange fluorescence [a.u.]": 50200}
{"target": "WDR5", "temperature": "91.21 °C", "SYPRO Orange fluorescence [a.u.]": 49500}
{"target": "DCAF1", "temperature": "82.61 °C", "SYPRO Orange fluorescence [a.u.]": 42600}
{"target": "DCAF1", "temperature": "58.41 °C", "SYPRO Orange fluorescence [a.u.]": 33100}
{"data": "Block 3", "Structure (SMILES)": "O=C(Nc1ccccc1)Nc1cccc(Oc2ccc3nccn3n2)c1", "observed": "binding", "tested at": "1 µM"}
{"target": "LCK (Homo sapiens, UniProt P06239)", "method": "competition with immobilised ligand", "remaining binding [%]": 67}
{"target": "NEK7 (Homo sapiens, UniProt Q8TDX7)", "remaining binding [%]": 100}
{"target": "STK32A (Homo sapiens, UniProt Q8WU08)", "remaining binding [%]": 100}
{"target": "PRPF4B (Homo sapiens, UniProt Q13523)", "remaining binding [%]": 74}
{"target": "BRAF (Homo sapiens, UniProt P15056, V600E)", "remaining binding [%]": 49}
{"target": "Ribosomal protein S6 kinase alpha-2, C-terminal kinase domain (RPS6KA2, Homo sapiens, UniProt Q15349)", "method": "competition with immobilised ligand", "remaining binding [%]": 86}
{"target": "FRK (Homo sapiens, UniProt P42685)", "method": "competition with immobilised ligand", "remaining binding [%]": 100}
{"target": "FLT3 (Homo sapiens, UniProt P36888, D835V)", "remaining binding [%]": 100}
{"target": "MAP2K4 (Homo sapiens, UniProt P45985)", "remaining binding [%]": 100}
{"target": "NEK5 (Homo sapiens, UniProt Q6P3R8)", "remaining binding [%]": 100}
{"target": "CDK11A (Homo sapiens, UniProt Q9UQ88)", "remaining binding [%]": 95}
{"target": "RET (Homo sapiens, UniProt P07949)", "method": "competition with immobilised ligand", "remaining binding [%]": 92}
{"target": "STK26 (Homo sapiens, UniProt Q9P289)", "method": "competition with immobilised ligand", "remaining binding [%]": 100}
{"target": "Ribosomal protein S6 kinase alpha-6, C-terminal kinase domain (RPS6KA6, Homo sapiens, UniProt Q9UK32)", "method": "competition with immobilised ligand", "remaining binding [%]": 100}
{"target": "FGFR3 (Homo sapiens, UniProt P22607, G697C)", "remaining binding [%]": 91}
{"target": "STK4 (Homo sapiens, UniProt Q13043)", "method": "competition with immobilised ligand", "remaining binding [%]": 100}
{"target": "CSNK2A1 (Homo sapiens, UniProt P68400)", "remaining binding [%]": 100}
{"target": "TIE1 (Homo sapiens, UniProt P35590)", "method": "competition with immobilised ligand", "remaining binding [%]": 100}
{"data": "Block 4", "SMILES": "CNc1ncc2cc(-c3cc(OC)cc(OC)c3Cl)c(=O)n(CCc3ccc(NC(=O)C(C#N)=CC(C)(C)N4CCOCC4)cc3)c2n1", "observed": "kinase activity"}
{"target": "GRK6 (Homo sapiens, UniProt P43250)", "tested at": "0.1 µM", "inhibition": "-2%"}
{"target": "Tyrosine-protein kinase Lyn, isoform A (LYN, Homo sapiens, UniProt P07948)", "tested at": "0.1 µM", "inhibition": "4%"}
{"target": "CHEK2 (Homo sapiens, UniProt O96017)", "tested at": "0.1 µM", "inhibition": "-2%"}
{"target": "IKBKE (Homo sapiens, UniProt Q14164)", "tested at": "0.1 µM", "inhibition": "-1%"}
{"target": "Cyclin-dependent kinase 6, with cyclin D3 (CDK6, Homo sapiens, UniProt Q00534)", "tested at": "0.1 µM", "inhibition": "0%"}
{"target": "DAPK3 (Homo sapiens, UniProt O43293)", "tested at": "1 µM", "inhibition": "-7%"}
{"target": "PIK3CD (Homo sapiens, UniProt O00329)", "tested at": "0.1 µM", "inhibition": "-6%"}
{"target": "5'-AMP-activated protein kinase catalytic subunit alpha-1, with beta1, gamma1 (PRKAA1, Homo sapiens, UniProt Q13131)", "tested at": "0.1 µM", "inhibition": "-3%"}
{"target": "INSRR (Homo sapiens, UniProt P14616)", "tested at": "0.1 µM", "inhibition": "-1%"}
{"target": "PRKCH (Homo sapiens, UniProt P24723)", "tested at": "1 µM", "inhibition": "-18%"}
{"target": "STK3 (Homo sapiens, UniProt Q13188)", "tested at": "0.1 µM", "inhibition": "1%"}
{"target": "Cyclin-dependent kinase 3, with cyclin E (CDK3, Homo sapiens, UniProt Q00526)", "tested at": "0.1 µM", "inhibition": "-4%"}
{"target": "TNK2 (Homo sapiens, UniProt Q07912)", "tested at": "1 µM", "inhibition": "1%"}
{"note": "Excerpt of the above (block 3):"}
{"target": "NEK5 (Homo sapiens, UniProt Q6P3R8)", "remaining binding [%]": 100}
{"target": "CDK11A (Homo sapiens, UniProt Q9UQ88)", "remaining binding [%]": 95}
{"target": "RET (Homo sapiens, UniProt P07949)", "method": "competition with immobilised ligand", "remaining binding [%]": 92}
{"target": "STK26 (Homo sapiens, UniProt Q9P289)", "method": "competition with immobilised ligand", "remaining binding [%]": 100}
